Measurements gathered from unrelated publications.
Compare with care: the assays were run in different laboratories. ± gives the spread as reported.
Organism: SARS-CoV-2

| SMILES | test | test system | setting | EC50 [µM] |
| --- | --- | --- | --- | --- |
| Cc1ccc(N2CC3CC(C2)N3)cc1C(=O)NC1(c2ccc3c4c(cccc24)C(=O)N3C)CC1 | viral replication | Vero C1008, Omicron BA.5 | – | 0.2 |
| O=C(CNc1ccc(OC(F)(F)F)cc1)N1CCCC2=CC3CC(CN4CCCCC34)C21 (stereo not shown) | pseudovirus entry | – | pseudovirus | 19.3 |
| Cc1cc(C(=O)COn2nnc3ccc(S(C)(=O)=O)cc32)c(C)n1C | viral replication | – | – | > 100 |
| Cc1cccc(F)c1NC(=O)CN1CCCC2=CC3CC(CN4CCCCC34)C21 (stereo not shown) | pseudovirus entry | – | pseudovirus | > 267 |
| O=C(O)CNC(=O)c1ccccc1[Se][Se]c1ccccc1C(=O)NCC(=O)O | viral replication, RT-qPCR | Vero | 48 h | > 100 |
| O=C(CN1CCCC2=CC3CC(CN4CCCCC34)C21)Nc1ccc(Br)c(C(F)(F)F)c1 (stereo not shown) | pseudovirus entry | – | pseudovirus | 4 |
| COc1c(CNC(=O)c2cc(C3CC3)nn2C)cccc1OC(F)(F)F | viral replication | Vero C1008, WA1/2020 | – | 0.1 |
| CC(C)C(=O)OC[C@H]1O[C@@](C#N)(n2ccc(N)nc2=O)[C@H](O)[C@@H]1O | viral replication, qRT-PCR of viral RNA | Vero, Washington | – | 3.6 ± 0.3 |
| CC(C)C[C@H](NC(=O)c1cc2c(F)ccc(F)c2[nH]1)C(=S)N[C@@H](C[C@@H]1CCNC1=O)C(=O)c1nc2cc(F)ccc2s1 | viral replication, RT-qPCR | VeroE6, WK-521 | – | 0.49 ± 0.06 |
| Cc1ccc(NCCN(C)CCNc2ccnc3cc(Cl)ccc23)c2c(=O)c3ccccc3sc12 | cytopathic effect | Vero E6 | 72 h | 3.28 ± 0.57 |
| CC[C@@H](C)[C@@H](C(=O)OC)n1[se]c2ccccc2c1=O | viral replication, RT-qPCR | Vero | 48 h | 11 |
| CN1CCN(C(=O)C[C@H](Cc2ccc(F)cc2)NC(=O)[C@@H](Cc2ccc(Cl)cc2Cl)NC(=O)[C@H](N)Cc2ccccc2C#N)CC1 | viral replication | USA-WA1/2020 | 24 h | 3.1 |
| CN(C)c1ccc(N(Cc2cc(Cl)cs2)C(=O)Cc2cncc3ccccc23)cc1 | dsRNA staining | Calu-3, Omicron BA.5 | – | 0.3 |
| Cc1ccc(CNC(=O)c2ccc(F)c(F)c2)cc1C(=O)N[C@H](C)c1cccc2ccccc12 | viral replication | Vero C1008, WK-521 ancestral Wuhan | – | 3.7 ± 0.6 |
| O=C1C(O)=C(Nc2cccc(C(F)(F)F)c2)C(=O)c2ccccc21 | viral replication | Calu-3 | 48 h | 1.5 ± 0.2 |
| Cc1ccc(OCCN(C)C)cc1C(=O)N[C@H](C)c1cc(-c2cnn(C)c2)cc(-c2cnn(C)c2)c1 | viral replication | Caco-2, icSARS-CoV-2-nLuc reporter | – | 0.31 |
| O=C(Oc1ccc(CCCCCCCCC(=O)c2c(OC(=O)c3ccccc3)cccc2OC(=O)c2ccccc2)cc1OC(=O)c1ccccc1)c1ccccc1 | MTT | Vero E6/TMPRSS2, WK-521 ancestral | – | 14 |
| Cc1ccccc1CN1CCCC2=CC3CC(CN4CCCCC34)C21 (stereo not shown) | pseudovirus entry | – | pseudovirus | 97 |
| CNCc1ccc(C)c(C(=O)N[C@H](C)c2cccc3ccccc23)c1 | viral replication | Vero C1008, WK-521 ancestral Wuhan | – | 23.6 ± 0.4 |
| CCn1ccc(-c2cc(-c3cnn(C)c3)cc([C@@H](C)NC(=O)c3cc(OCCN(C)C)ccc3C)c2)n1 | viral replication, plaque | Vero-AT | – | 0.51 |
| CNC(=O)C[C@H](Cc1ccc(F)cc1)NC(=O)[C@@H](Cc1ccc(Cl)cc1Cl)NC(=O)[C@H](N)Cc1ccccc1[N+](=O)[O-] | viral replication | USA-WA1/2020 | 24 h | 4 |
| CN(C)S(=O)(=O)c1ccc2c(c1)N(CCCN1CCC(CCO)CC1)c1ccccc1S2 | viral replication, high-content imaging screen | – | cell-based | > 100 |
| COc1cc(O)ccc1CN(C)[C@H](C)c1cccc2ccccc12 | viral replication | Vero E6, USA-WA1/2020 | 24 h | > 60 |
| Cc1ccc(OCCN(C)C)cc1C(=O)N[C@H](C)c1cc(-c2cnn(C)c2)cc(-c2ccn(C)n2)c1 | viral replication | Caco-2, icSARS-CoV-2-nLuc reporter | – | 1.15 |
| CN(C)c1ccc(N(Cc2cc(Cl)cs2)C(=O)Cc2cncc3cccc(O)c23)cc1 | dsRNA staining | Caco-2, Omicron XBB.1.5 | – | 0.095 |
| CN(C)CCCCNC(=O)C[C@H](Cc1ccc(F)cc1)NC(=O)[C@@H](Cc1ccc(Cl)cc1)NC(=O)[C@H](N)Cc1ccccc1C#N | viral replication | USA-WA1/2020 | 24 h | > 10 |

| SMILES | test | test system | setting | EC50 [µM] |
| --- | --- | --- | --- | --- |
| NCCNc1ccnc2cc(Cl)ccc12 | viral replication | Caco-2 | 30 h | 18.9 ± 10 |
| Cc1ccc(CNC(=O)c2c(F)cccc2Br)cc1C(=O)N[C@H](C)c1cccc2ccccc12 | viral replication | Vero C1008, WK-521 ancestral Wuhan | – | > 100 |
| O=C(NC12CC3CC(CC(C3)C1)C2)N1CCCC2=CC3CC(CN4CCCCC34)C21 (stereo not shown) | pseudovirus entry | – | pseudovirus | 52.9 |
| COc1ccc(-c2cnc3[nH]cc(C#Cc4cccnc4)c3c2)cc1OC | viral replication | Vero E6, USA-WA1/2020 | – | 0.3 |
| Cc1ccc(N2CC(N3CCC(C)(O)CC3)C2)cc1C(=O)NC1(c2ccc3c4c(cccc24)C(=O)N3C)CC1 | viral replication | Vero C1008, wild type | – | 0.035 |
| O=C(c1cncc2cc[nH]c12)N1CCC(=C2c3ccccc3CS(=O)(=O)c3ccccc32)CC1 | viral replication | USA-WA1/2020 | – | 0.014 |
| CO/C1=C\C(C)=C\[C@@H](C)[C@@H](O)[C@@H](C)C/C(C)=C/C=C/[C@H](OC)[C@@H]([C@@H](C)[C@@H](O)[C@H](C)C(=O)/C=C/[C@H](C)[C@H](O)C(C)C)OC1=O | viral replication, item: dsRNA | Calu-3, Delta B.1.617.2 | – | 0.05 |
| Nc1ncnc2c1ncn2[C@@H]1O[C@H](CSCc2cccc(C(=O)O)c2)[C@@H](O)[C@H]1O | viral replication, N protein immunofluorescence | Calu-3 | 24 h | > 200 |
| C[C@@H]1O[C@@H](n2c3ccccc3c3c4c(c5c6ccccc6[nH]c5c32)CNC4=O)C[C@@H](N)[C@H]1O | viral replication, item: dsRNA | Calu-3, Omicron BA.2 | – | 0.394 |
| CC(C)(C)[C@H](NC(=O)C(F)(F)F)C(=O)N1C[C@H]2[C@@H]([C@H]1C(=O)N[C@H](C#N)C[C@@H]1CCNC1=O)C2(C)C | dsRNA staining | Caco-2, Omicron BA.5 | – | 0.4 |
| CC[C@H](C)[C@@H]1NC(=O)[C@H](C(C)C)NC(=O)[C@H](CC(C)C)NC(=O)[C@H](CCCCN)NC(=O)[C@H](CCCNC(=N)N)NC(=O)[C@@H]2CCCN2C(=O)[C@H](C(C)C)NC(=O)[C@H](CCCNC(=N)N)NC(=O)[C@H](Cc2ccc(O)cc2)NC(=O)CSC[C@@H](C(=O)NCC(N)=O)NC(=O)[C@H](Cc2ccccc2)NC(=O)[C@H](CC(N)=O)NC(=O)[C@H](Cc2c[nH]c3ccccc23)NC(=O)[C@H](C(C)C)NC(=O)[C@H](CO)NC(=O)CNC(=O)[C@H]([C@@H](C)CC)NC1=O | – | HEK293 ACE2 TMPRSS2, ancestral Wuhan | – | 11.4 |
| CCC1c2ccsc2CCN1C(=O)Cn1nnc2ccccc21 (stereo not shown) | viral replication | – | – | 14.9 |
| Cc1cc(C(=O)NCc2ccc(C)c(C(=O)N[C@H](C)c3cccc4ccccc34)c2)ccc1Br | viral replication | Vero C1008, WK-521 ancestral Wuhan | – | 57.1 ± 6.7 |
| [2H]C1([2H])C[C@@H](C[C@@H](C#N)NC(=O)[C@@H]2[C@@H]3[C@H](CN2C(=O)[C@@H](NC(=O)C(F)(F)F)C(C)(C)C)C3(C)C)C(=O)N1 | viral replication | Canada/VIDO 01/2020 | together with: efflux inhibitor CP-100356 | 0.06 |
| CC(=O)N(CCCc1cn(-c2ccc(CN3CCOCC3)cc2)nn1)CCNc1ccnc2cc(Cl)ccc12 | viral replication | Caco-2 | 30 h | 15.9 ± 14.1 |
| CC(C)C[C@H](NC(=O)OCc1ccccc1)C(=O)N[C@@H](CC1CCNC1=O)C(O)S(=O)(=O)O (stereo partly shown) | viral replication | Vero E6 | 96 h | 10 ± 4.2 |
| CCCCNC(=O)C[C@H](Cc1ccc(F)cc1)NC(=O)[C@@H](Cc1ccc(Cl)cc1Cl)NC(=O)[C@H](N)Cc1ccccc1C#N | viral replication | USA-WA1/2020 | 24 h | 0.8 |
| COc1ccc(Cl)cc1C(=O)NCc1ccc(C)c(C(=O)N[C@H](C)c2cccc3ccccc23)c1 | viral replication | Vero C1008, WK-521 ancestral Wuhan | – | 18.9 ± 0.7 |
| N#Cc1ccccc1CC(N)C(=O)NC(Cc1ccc(Cl)cc1Cl)C(=O)NC(CC(=O)NCCCc1ccncc1)Cc1ccc(F)cc1 (stereo not shown) | viral replication | USA-WA1/2020 | 24 h | 1 |
| CC(=O)[C@@]1(O)CC[C@H]2[C@@H]3CCC4=CC(=O)CC[C@]4(C)[C@H]3CC[C@@]21C | viral replication, plaque | – | – | 2.77 ± 0.49 |
| CNC(=O)C[C@H](Cc1ccccc1)NC(=O)[C@@H](Cc1ccc(Cl)cc1Cl)NC(=O)[C@H](N)Cc1ccccc1C#N | viral replication | USA-WA1/2020 | 24 h | 2 |
| CC(=O)OC1(C)CC(C=C(C)CCC=C(C)C)OC2(C=C(CO)C3CC(=O)C(C)=CC3O2)C1 (stereo not shown) | viral replication, item: dsRNA | Calu-3, Delta B.1.617.2 | – | 3.9 |
| CN(C(=O)CN1CCCC2=CC3CC(CN4CCCCC34)C21)c1ccc(Br)cc1 (stereo not shown) | pseudovirus entry | – | pseudovirus | 42.3 |
| C[C@](C(=O)NC1CCOCC1)(c1cncnc1)N(C(=O)[C@H](F)Cl)c1ccc(OC(F)(F)Cl)cc1 | viral replication | Vero | – | 0.071 |
| CNC(=O)C[C@H](Cc1ccc(F)cc1)NC(=O)[C@@H](Cc1ccc(Cl)cc1Cl)NC(=O)[C@@H](Cc1ccccc1C#N)NC(C)=O | viral replication | USA-WA1/2020 | 24 h | > 10 |
| C[C@H](c1cccc2ccccc12)N(C)Cc1ccc(O)cc1Cl | viral replication | Vero E6, USA-WA1/2020 | 24 h | 22.3 |

A few entries again:
| SMILES | test | test system | setting | EC50 [µM] |
| --- | --- | --- | --- | --- |
| O=C(Oc1ccc(CCCCCCCCC(=O)c2c(OC(=O)c3ccccc3)cccc2OC(=O)c2ccccc2)cc1OC(=O)c1ccccc1)c1ccccc1 | MTT | Vero E6/TMPRSS2, WK-521 ancestral | – | 14 |
| Cc1ccccc1CN1CCCC2=CC3CC(CN4CCCCC34)C21 (stereo not shown) | pseudovirus entry | – | pseudovirus | 97 |
| CNCc1ccc(C)c(C(=O)N[C@H](C)c2cccc3ccccc23)c1 | viral replication | Vero C1008, WK-521 ancestral Wuhan | – | 23.6 ± 0.4 |
| CCn1ccc(-c2cc(-c3cnn(C)c3)cc([C@@H](C)NC(=O)c3cc(OCCN(C)C)ccc3C)c2)n1 | viral replication, plaque | Vero-AT | – | 0.51 |
| CNC(=O)C[C@H](Cc1ccc(F)cc1)NC(=O)[C@@H](Cc1ccc(Cl)cc1Cl)NC(=O)[C@H](N)Cc1ccccc1[N+](=O)[O-] | viral replication | USA-WA1/2020 | 24 h | 4 |
| CN(C)S(=O)(=O)c1ccc2c(c1)N(CCCN1CCC(CCO)CC1)c1ccccc1S2 | viral replication, high-content imaging screen | – | cell-based | > 100 |
| COc1cc(O)ccc1CN(C)[C@H](C)c1cccc2ccccc12 | viral replication | Vero E6, USA-WA1/2020 | 24 h | > 60 |
| Cc1ccc(OCCN(C)C)cc1C(=O)N[C@H](C)c1cc(-c2cnn(C)c2)cc(-c2ccn(C)n2)c1 | viral replication | Caco-2, icSARS-CoV-2-nLuc reporter | – | 1.15 |
